Measurements collected from several papers.
Compare with care: the assays were run in different laboratories. Numbers after ± are the reported error.

Compound	assay	system	conditions	scale	endpoint	value
N#[11C]c1ccc(-c2csc(NN=C3CCCC3)n2)cc1		C57BL/6 mice, male, heart	intravenous, 3 MBq, 30 min		radioactivity uptake	1.78 ± 0.24 %ID/g
CCCCCCCCCCCCCC(=O)N[C@H](CCN)C(=O)N[C@@H]1C(=O)N[C@@H](CCN)C(=O)N[C@@H](CC(C)C)C(=O)N[C@@H](CCN)C(=O)N[C@H](Cc2ccccc2)C(=O)N[C@@H](CC(C)C)C(=O)N[C@@H](CCN)C(=O)N[C@H](CCN)C(=O)N[C@@H](C(C)C)C(=O)N[C@@H](CC(=O)O)C(=O)O[C@@H]1C		rat, plasma	intravenous, 5 mg/kg		Vd	0.432 L/kg
CSCC[C@@H]1NC(=O)[C@H](C(C)C)NC(=O)[C@H](CCCNC(=N)N)NC(=O)CNC(=O)[C@@H]2CCCN2C(=O)[C@@H](NC(=O)CNC(=O)[C@H](CO)NC(=O)CNC(=O)[C@H](CO)NC(=S)Nc2ccc(C[C@H]3CN(CC(=O)O)CCN(CC(=O)O)CCN3CC(=O)O)cc2)CSSC[C@@H](C(N)=O)NC(=O)[C@@H]2CCCN2C(=O)CNC(=O)[C@H](CCC(=O)O)NC(=O)[C@H](CC(=O)O)NC(=O)[C@H](CC(=O)O)NC(=O)CNC(=O)[C@H](CC(C)C)NC(=O)[C@H](Cc2c[nH]cn2)NC(=O)[C@H](CC(C)C)NC(=O)CNC(=O)[C@H](Cc2c[nH]cn2)NC1=O [copper-64 labelled]	dynamic PET	CD rat, myocardial infarction, left ventricular blood pool	intravenous, 18.5 MBq		blood distribution half-life	2.1 ± 0.2 min
CC(=O)NCCCC[C@@H]1NC(=O)[C@H](Cc2c[nH]c3c(C)cccc23)NC(=O)[C@H]([C@@H](C)O)NC(=O)[C@H](CC(N)=O)NC(=O)[C@@H](NC(C)=O)C(C)(C)SSC(C)(C)[C@@H](C(=O)N[C@@H](Cc2ccc(OCCN)cc2)C(=O)N[C@@H](Cc2ccc3ccccc3c2)C(=O)NC2(C(=O)N[C@@H](CCC(=O)O)C(=O)N[C@@H](CC(N)=O)C(=O)N[C@@H](Cc3cccnc3)C(=O)N(C)CC(N)=O)CCOCC2)NC1=O		human, blood	0.13 µM, 2 h		blood to plasma ratio	0.61 ± 0.03
O=C1NC2(CC2)COc2ncc(F)cc2[C@H]2COCCN2c2ccn3ncc1c3n2		Sprague-Dawley rat, male, liver	oral, 20 mg/kg/day, 4 weeks dosing, end of recovery		organ-to-body weight ratio	2.97 ± 0.476%
CSCC[C@H](NC(=O)CNC(=O)[C@H](CCCCN)NC(=O)[C@H](CC(C)C)NC(=O)[C@@H]1CCCN1C(=O)[C@H](CO)NC(=O)[C@H](Cc1c[nH]cn1)NC(=O)[C@H](Cc1c[nH]c2ccccc12)NC(=O)[C@H](CCCNC(=N)N)NC(=O)[C@H](CC(C)C)NC(=O)[C@H](CCCNC(=N)N)NC(=O)[C@H](Cc1c[nH]c2ccccc12)NC(=O)[C@H](CS)NC(=O)CCCCCNC(=O)CN1CCN(CC(=O)O)CCN(CC(=O)O)CCN(CC(=O)O)CC1)C(=O)O [copper-64 labelled]	PET	C57BL/6J mice, B16-F10 tumour, tumor	intravenous, 3.5 h		tissue uptake	1.95 ± 0.17 %ID/g
CCCCCCCCCCCCCCCC(=O)N[C@@H](CCC(=O)NCCOCCOCCC(=O)NCCOCCOCCC(=O)NCCCC[C@H](NC(=O)[C@H](CC(=O)O)NC(=O)[C@H](CC(C)C)NC(=O)[C@H](Cc1ccc(O)cc1)NC(=O)[C@H](CCCCN)NC(=O)[C@H](CO)NC(=O)[C@H](Cc1ccc(O)cc1)NC(=O)[C@H](CC(=O)O)NC(=O)[C@H](CO)NC(=O)[C@@H](NC(=O)[C@H](Cc1ccccc1)NC(=O)[C@@H](NC(=O)CNC(=O)[C@H](CCC(N)=O)NC(=O)[C@@H](CO)NC(=O)[C@@H](N)Cc1c[nH]cn1)[C@@H](C)O)[C@@H](C)O)C(=O)N[C@@H](CCCNC(=N)N)C(=O)N[C@@H](CCCNC(=N)N)C(=O)N[C@@H](C)C(=O)N[C@@H](CCC(N)=O)C(=O)N[C@@H](CC(=O)O)C(=O)N[C@@H](Cc1ccccc1)C(=O)N[C@H](C(=O)N[C@@H](CCC(N)=O)C(=O)N[C@@H](Cc1c[nH]c2ccccc12)C(=O)N[C@@H](CC(C)C)C(=O)N[C@@H](CC(C)C)C(=O)N[C@@H](CC(N)=O)C(=O)N[C@H](C(=O)NCC(=O)NCC(=O)N1CCC[C@H]1C(=O)N[C@@H](CO)C(=O)N[C@@H](CO)C(=O)NCC(=O)N[C@@H](C)C(=O)N1CCC[C@H]1C(=O)N1CCC[C@H]1C(=O)N1CCC[C@H]1C(=O)N[C@@H](CO)C(N)=O)[C@@H](C)O)C(C)C)C(=O)O		rhesus monkey, male	subcutaneous, 300 µg/kg once daily, 28 days		creatinine	45.4 ± 6.3 µmol/L
C=Cc1c(C)c2cc3nc(c(CC(=O)[O-])c4[n-]c(cc5nc(cc1[n-]2)C(C)=C5CC)c(C)c4C(=O)[O-])C(CCC(=O)[O-])C3C.[Cu+2].[Na+].[Na+].[Na+] (stereo not drawn)		Wistar rat, male	oral, 250 mg/kg daily, 28 days		serum albumin	1.02 ± 0.1 g/dL
CC(=O)c1ncn2c(=O)n(C)nnc12		mice	intravenous, 125 mg/kg single dose, 7 days		body weight	31 ± 1 g
N=C(N)NCCC[C@@H](NC(=O)[C@H](N)Cc1c[nH]c2ccccc12)C(=O)N[C@H](CCCCN)C(=O)N[C@H](Cc1c[nH]c2ccccc12)C(=O)N[C@H](CCCNC(=N)N)C(=O)N[C@H](CCCCN)C(=O)N[C@H](Cc1c[nH]c2ccccc12)C(=O)N[C@H](CCCNC(=N)N)C(=O)N[C@H](CCCCN)C(=O)N[C@H](Cc1c[nH]c2ccccc12)C(=O)N[C@H](CCCNC(=N)N)C(=O)N[C@H](CCCCN)C(N)=O		mouse	intraperitoneal, 20 mg/kg single dose, day 6		survival	100%
C=CC(=O)Nc1cccc(Cn2ncc3cnc(Nc4cnn(CCOC)c4)nc32)c1		Sprague-Dawley rat, male	oral, 180 mg/kg, day 28, 28-day subacute toxicity study		RDW-SD	33.5 ± 1.46%
CC[C@H](C)[C@H](NC(=O)[C@H](CCCCN)NC(=O)CNC(=O)[C@H](CC(C)C)NC(=O)[C@H](Cc1ccccc1)NC(=O)[C@H](CCCCN)NC(=O)[C@H](CO)NC(=O)[C@H](Cc1ccccc1)NC(=O)[C@H](Cc1c[nH]c2ccccc12)NC(=O)[C@H](CCC(N)=O)NC(=O)[C@@H](NC(=O)[C@H](Cc1ccccc1)NC(=O)CCCCCNC(=O)CN1CCN(CC(=O)O)CCN(CC(=O)O)CCN(CC(=O)O)CC1)C(C)C)C(=O)N[C@@H](CCC(=O)O)C(=O)N1CCC[C@H]1C(=O)N[C@@H](CC(=O)O)C(=O)N[C@H](C(=O)N[C@@H](CO)C(=O)N[C@@H](CCC(N)=O)C(=O)N[C@H](C(=O)N[C@@H](CCC(N)=O)C(=O)N[C@@H](CC(=O)O)C(=O)N1CCC[C@H]1C(=O)N[C@@H](CC(N)=O)C(=O)N[C@@H](CC(=O)O)C(=O)N[C@@H](CCC(N)=O)C(=O)N[C@@H](Cc1ccc(O)cc1)C(=O)N[C@@H](CCC(=O)O)C(=O)N1CCC[C@H]1C(=O)N[C@@H](Cc1ccccc1)C(=O)O)C(C)C)C(C)C [copper-64 labelled]	dynamic PET	mouse, CT26 tumour, untreated, tumour	intravenous, 100 µCi/mouse, 2820 s		SUVmean	1.21 SUV
O=C(c1cc(Cc2n[nH]c(=O)c3ccccc23)ccc1F)N1CC(CNC2CC2)C1		Wistar Han rat, male, blood	oral, 30 mg/kg daily, 4 weeks		haemoglobin	15.6 ± 1.2 g/dL
CSCC[C@H](N)C(=O)N[C@@H](C)C(=O)N[C@@H](Cc1c[nH]c2ccccc12)C(=O)N[C@@H](Cc1c[nH]cn1)C(=O)N[C@@H](CC(=O)O)C(=O)N[C@@H](CC(=O)O)C(=O)N[C@@H](CCC(=O)O)C(=O)N[C@@H](CCC(=O)O)C(=O)N[C@@H](Cc1ccccc1)C(=O)N[C@@H](C)C(=O)N[C@@H](CCCNC(=N)N)C(=O)N[C@@H](CCCNC(=N)N)C(=O)N[C@@H](CCCNC(=N)N)C(=O)N[C@@H](CCCNC(=N)N)C(=O)NCCCCCC(=O)NCCCCC(NC(=O)CCCCCNC(=O)[C@H](CCCNC(=N)N)NC(=O)[C@H](CCCNC(=N)N)NC(=O)[C@H](CCCNC(=N)N)NC(=O)[C@H](CCCNC(=N)N)NC(=O)[C@H](C)NC(=O)[C@H](Cc1ccccc1)NC(=O)[C@H](CCC(=O)O)NC(=O)[C@H](CCC(=O)O)NC(=O)[C@H](CC(=O)O)NC(=O)[C@H](CC(=O)O)NC(=O)[C@H](Cc1c[nH]cn1)NC(=O)[C@H](Cc1c[nH]c2ccccc12)NC(=O)[C@H](C)NC(=O)[C@@H](N)CCSC)C(=O)NCCCCC(NC(=O)C(CCCCNC(=O)CCCCCNC(=O)[C@H](CCCNC(=N)N)NC(=O)[C@H](CCCNC(=N)N)NC(=O)[C@H](CCCNC(=N)N)NC(=O)[C@H](CCCNC(=N)N)NC(=O)[C@H](C)NC(=O)[C@H](Cc1ccccc1)NC(=O)[C@H](CCC(=O)O)NC(=O)[C@H](CCC(=O)O)NC(=O)[C@H](CC(=O)O)NC(=O)[C@H](CC(=O)O)NC(=O)[C@H](Cc1c[nH]cn1)NC(=O)[C@H](Cc1c[nH]c2ccccc12)NC(=O)[C@H](C)NC(=O)[C@@H](N)CCSC)NC(=O)CCCCCNC(=O)[C@H](CCCNC(=N)N)NC(=O)[C@H](CCCNC(=N)N)NC(=O)[C@H](CCCNC(=N)N)NC(=O)[C@H](CCCNC(=N)N)NC(=O)[C@H](C)NC(=O)[C@H](Cc1ccccc1)NC(=O)[C@H](CCC(=O)O)NC(=O)[C@H](CCC(=O)O)NC(=O)[C@H](CC(=O)O)NC(=O)[C@H](CC(=O)O)NC(=O)[C@H](Cc1c[nH]cn1)NC(=O)[C@H](Cc1c[nH]c2ccccc12)NC(=O)[C@H](C)NC(=O)[C@@H](N)CCSC)C(N)=O (stereo partly drawn)		C57BL/6 mouse female, liver	dose not given, 3 h	baseline: total	mean tissue distribution	6.65%
C#Cc1c(F)ccc2cc(O)cc(-c3ncc4c(N5CC6CCC(C5)N6C(=O)OC(OC(=O)CCC)C5CCC5)nc(OC[C@@]56CCCN5C[C@H](F)C6)nc4c3F)c12 (stereo partly drawn)	chemical stability	simulated intestinal fluid	1 µM, 30 min		compound remaining	102%
CC(C)[C@@H]1NC(=O)CNC(=O)[C@H](CC(N)=O)NC(=O)[C@H](CCCNC(=N)N)NC(=O)[C@H](Cc2ccc(O)cc2)NC(=O)[C@H](C(C)C)NC(=O)[C@@H](NC(=O)[C@@H](NC(=O)[C@H](CC(N)=O)NC(=O)[C@H](Cc2c[nH]c3ccccc23)NC(=O)[C@H](C)NC(=O)[C@H](Cc2ccccc2)NC(=O)CNC(=O)[C@H](CCCCN)NC(=O)[C@H](Cc2ccccc2)NC(=O)[C@H](Cc2ccccc2)NC(=O)[C@H](CCCCN)NC(=O)OCC2c3ccccc3-c3ccccc32)C(C)C)CSSC[C@@H](C(=O)N[C@@H](Cc2c[nH]cn2)C(=O)N[C@@H](CCCNC(=N)N)C(=O)N[C@@H](CCCNC(=N)N)C(=O)N[C@@H](C)C(=O)N[C@@H](CC(N)=O)C(N)=O)NC(=O)[C@H](C(C)C)NC(=O)[C@H](CCCNC(=N)N)NC1=O		ICR mouse, blood	intramammary, 10 mg/kg, day 5, 3 d dosing		calcium	1.34 ± 0.06 mmol/L
CCCCCCCCCC(=O)N[C@@H](CCCNC(=N)N)C(=O)N[C@@H](Cc1c[nH]c2ccccc12)C(=O)N[C@@H](CCCCN)C(=O)N[C@H](C(=O)N[C@@H](Cc1ccccc1)C(=O)N[C@@H](CCCCN)C(=O)N[C@@H](CCCCN)C(=O)N[C@H](C(=O)N[C@@H](CCC(=O)O)C(=O)N[C@@H](CCCCN)C(=O)N[C@H](C(=O)NCC(=O)N[C@@H](CCC(N)=O)C(=O)N[C@@H](CC(N)=O)C(=O)N[C@H](C(=O)N[C@@H](CCCNC(=N)N)C(=O)N[C@@H](CC(=O)O)C(=O)NCC(=O)N[C@H](C(=O)N[C@H](C(=O)N[C@@H](CCCCN)C(=O)N[C@@H](C)C(=O)NCC(=O)N1CCC[C@H]1C(=O)N[C@@H](C)C(=O)N[C@H](C(=O)N[C@@H](C)C(=O)N[C@H](C(=O)N[C@H](C(=O)NCC(=O)N[C@@H](CCC(N)=O)C(=O)N[C@@H](C)C(=O)N[C@@H](C)C(=O)N[C@H](C(=O)N[C@H](C(N)=O)[C@@H](C)CC)[C@@H](C)O)C(C)C)C(C)C)C(C)C)C(C)C)[C@@H](C)CC)[C@@H](C)CC)C(C)C)[C@@H](C)CC)[C@@H](C)CC		mouse erythrocytes	32 µM, 1 h, 37 °C		hemolysis	< 8%
CC1(C)C(=O)N(c2ccc(C#N)c(C(F)(F)F)c2)C(=S)N1c1ccc(C(N)=O)c(F)c1		healthy male humans, plasma	oral, 40 mg, fasting, soft capsules		median Tmax	240 h

Repeated from above:
Compound	assay	system	conditions	scale	endpoint	value
CSCC[C@@H]1NC(=O)[C@H](C(C)C)NC(=O)[C@H](CCCNC(=N)N)NC(=O)CNC(=O)[C@@H]2CCCN2C(=O)[C@@H](NC(=O)CNC(=O)[C@H](CO)NC(=O)CNC(=O)[C@H](CO)NC(=S)Nc2ccc(C[C@H]3CN(CC(=O)O)CCN(CC(=O)O)CCN3CC(=O)O)cc2)CSSC[C@@H](C(N)=O)NC(=O)[C@@H]2CCCN2C(=O)CNC(=O)[C@H](CCC(=O)O)NC(=O)[C@H](CC(=O)O)NC(=O)[C@H](CC(=O)O)NC(=O)CNC(=O)[C@H](CC(C)C)NC(=O)[C@H](Cc2c[nH]cn2)NC(=O)[C@H](CC(C)C)NC(=O)CNC(=O)[C@H](Cc2c[nH]cn2)NC1=O [copper-64 labelled]	dynamic PET	CD rat, myocardial infarction, left ventricular blood pool	intravenous, 18.5 MBq		blood distribution half-life	2.1 ± 0.2 min
